Measured values gathered from unrelated publications.
DRD3: D(3) dopamine receptor (DRD3, Homo sapiens, UniProt P35462)
Chain of UniProt P35462 (whole entry, looked up): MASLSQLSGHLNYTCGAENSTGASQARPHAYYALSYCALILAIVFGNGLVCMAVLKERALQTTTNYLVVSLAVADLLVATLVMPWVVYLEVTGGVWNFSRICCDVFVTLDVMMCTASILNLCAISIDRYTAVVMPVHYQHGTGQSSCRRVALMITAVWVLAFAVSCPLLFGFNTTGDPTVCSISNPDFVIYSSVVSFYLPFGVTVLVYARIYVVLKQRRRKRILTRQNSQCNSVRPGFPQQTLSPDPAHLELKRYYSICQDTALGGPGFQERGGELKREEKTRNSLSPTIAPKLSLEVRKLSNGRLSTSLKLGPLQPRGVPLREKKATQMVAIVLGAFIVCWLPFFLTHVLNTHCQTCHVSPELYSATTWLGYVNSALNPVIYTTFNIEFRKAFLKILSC
CTSL: Procathepsin L (CTSL, Homo sapiens, UniProt P07711)
Chain of UniProt P07711 (whole entry, looked up): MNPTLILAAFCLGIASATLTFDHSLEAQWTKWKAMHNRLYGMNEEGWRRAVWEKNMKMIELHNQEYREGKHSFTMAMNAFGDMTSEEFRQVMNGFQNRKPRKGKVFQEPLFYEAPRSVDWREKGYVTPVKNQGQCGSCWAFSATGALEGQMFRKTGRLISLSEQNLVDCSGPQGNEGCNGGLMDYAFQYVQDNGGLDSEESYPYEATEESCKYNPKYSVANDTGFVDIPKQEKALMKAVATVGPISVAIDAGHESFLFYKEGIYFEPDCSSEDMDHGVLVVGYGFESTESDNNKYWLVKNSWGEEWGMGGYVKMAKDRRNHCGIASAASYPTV
Chain of UniProt P06493 (whole entry, looked up): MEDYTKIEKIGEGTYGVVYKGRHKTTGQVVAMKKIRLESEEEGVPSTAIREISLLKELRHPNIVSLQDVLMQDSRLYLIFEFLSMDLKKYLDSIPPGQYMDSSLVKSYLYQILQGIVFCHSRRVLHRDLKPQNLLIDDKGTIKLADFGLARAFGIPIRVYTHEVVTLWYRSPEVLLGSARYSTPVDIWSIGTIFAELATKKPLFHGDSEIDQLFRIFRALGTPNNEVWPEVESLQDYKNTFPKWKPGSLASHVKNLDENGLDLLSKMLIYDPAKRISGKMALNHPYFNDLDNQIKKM
Chain of UniProt Q07912 (whole entry, looked up): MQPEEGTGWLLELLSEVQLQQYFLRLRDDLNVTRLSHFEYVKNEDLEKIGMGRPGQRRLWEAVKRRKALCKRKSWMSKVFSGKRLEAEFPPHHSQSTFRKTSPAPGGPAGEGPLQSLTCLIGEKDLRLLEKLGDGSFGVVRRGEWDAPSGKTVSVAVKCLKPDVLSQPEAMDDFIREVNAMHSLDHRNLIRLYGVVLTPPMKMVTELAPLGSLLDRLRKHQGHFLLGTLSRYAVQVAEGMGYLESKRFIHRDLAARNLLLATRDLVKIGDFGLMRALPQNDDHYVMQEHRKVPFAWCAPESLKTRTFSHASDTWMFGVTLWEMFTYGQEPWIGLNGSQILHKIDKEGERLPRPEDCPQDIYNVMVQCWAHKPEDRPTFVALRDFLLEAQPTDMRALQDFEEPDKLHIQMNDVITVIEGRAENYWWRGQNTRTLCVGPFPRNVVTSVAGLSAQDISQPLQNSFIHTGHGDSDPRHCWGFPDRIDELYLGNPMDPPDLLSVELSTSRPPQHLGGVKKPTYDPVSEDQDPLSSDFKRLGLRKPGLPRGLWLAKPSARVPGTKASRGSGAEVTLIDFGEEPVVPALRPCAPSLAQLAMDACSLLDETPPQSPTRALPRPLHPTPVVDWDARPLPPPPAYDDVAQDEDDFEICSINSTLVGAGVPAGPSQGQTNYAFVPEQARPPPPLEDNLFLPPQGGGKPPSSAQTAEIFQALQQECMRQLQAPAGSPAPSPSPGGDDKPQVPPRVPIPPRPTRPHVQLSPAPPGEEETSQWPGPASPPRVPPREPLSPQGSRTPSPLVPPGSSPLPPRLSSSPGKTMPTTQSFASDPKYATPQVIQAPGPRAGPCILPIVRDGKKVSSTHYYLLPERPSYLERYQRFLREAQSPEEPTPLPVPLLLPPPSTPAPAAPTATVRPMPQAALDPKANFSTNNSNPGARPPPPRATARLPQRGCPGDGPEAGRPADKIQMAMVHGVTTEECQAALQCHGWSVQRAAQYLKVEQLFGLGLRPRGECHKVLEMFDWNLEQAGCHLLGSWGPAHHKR
Chain of UniProt P00519 (whole entry, unmodified, looked up): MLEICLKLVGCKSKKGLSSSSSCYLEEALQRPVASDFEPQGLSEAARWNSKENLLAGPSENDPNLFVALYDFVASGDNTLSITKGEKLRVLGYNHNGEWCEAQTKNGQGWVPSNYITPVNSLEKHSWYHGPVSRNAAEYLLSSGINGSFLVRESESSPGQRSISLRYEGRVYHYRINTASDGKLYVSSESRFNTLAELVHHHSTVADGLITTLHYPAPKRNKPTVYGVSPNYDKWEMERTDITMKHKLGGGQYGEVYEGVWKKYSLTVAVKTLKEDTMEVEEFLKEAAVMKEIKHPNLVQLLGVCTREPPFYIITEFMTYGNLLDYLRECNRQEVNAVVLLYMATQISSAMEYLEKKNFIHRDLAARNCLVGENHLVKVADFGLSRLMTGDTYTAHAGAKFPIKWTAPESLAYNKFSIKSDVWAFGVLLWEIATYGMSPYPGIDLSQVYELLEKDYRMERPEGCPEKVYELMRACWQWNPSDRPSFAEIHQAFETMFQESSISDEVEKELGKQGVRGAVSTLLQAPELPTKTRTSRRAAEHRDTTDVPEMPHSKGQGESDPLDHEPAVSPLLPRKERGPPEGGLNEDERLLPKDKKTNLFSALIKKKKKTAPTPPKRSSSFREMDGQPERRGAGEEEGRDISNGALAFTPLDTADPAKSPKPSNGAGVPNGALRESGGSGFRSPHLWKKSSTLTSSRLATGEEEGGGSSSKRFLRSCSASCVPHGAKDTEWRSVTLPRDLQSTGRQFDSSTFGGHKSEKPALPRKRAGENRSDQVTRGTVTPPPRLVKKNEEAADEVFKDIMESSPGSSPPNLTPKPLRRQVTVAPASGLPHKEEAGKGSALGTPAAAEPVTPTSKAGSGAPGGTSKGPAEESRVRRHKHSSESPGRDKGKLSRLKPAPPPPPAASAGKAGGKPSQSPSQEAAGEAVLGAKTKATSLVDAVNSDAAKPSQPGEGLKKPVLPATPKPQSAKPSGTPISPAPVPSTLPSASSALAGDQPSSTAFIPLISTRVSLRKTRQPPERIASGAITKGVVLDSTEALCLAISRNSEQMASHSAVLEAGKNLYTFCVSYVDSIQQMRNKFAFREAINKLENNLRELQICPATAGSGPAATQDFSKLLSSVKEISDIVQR
Chain of UniProt Q969F8 (whole entry, unmodified, looked up): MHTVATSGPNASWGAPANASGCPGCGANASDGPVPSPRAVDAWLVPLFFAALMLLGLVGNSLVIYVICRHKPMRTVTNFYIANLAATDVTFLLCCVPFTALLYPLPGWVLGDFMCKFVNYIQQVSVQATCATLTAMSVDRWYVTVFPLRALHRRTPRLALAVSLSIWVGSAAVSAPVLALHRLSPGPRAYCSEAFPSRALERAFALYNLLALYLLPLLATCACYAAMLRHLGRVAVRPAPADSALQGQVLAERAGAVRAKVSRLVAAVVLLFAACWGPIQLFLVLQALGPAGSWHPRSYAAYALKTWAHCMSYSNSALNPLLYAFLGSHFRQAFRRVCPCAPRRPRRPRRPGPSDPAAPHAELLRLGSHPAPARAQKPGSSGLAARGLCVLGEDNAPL
Chain of UniProt P61075 (whole entry, looked up): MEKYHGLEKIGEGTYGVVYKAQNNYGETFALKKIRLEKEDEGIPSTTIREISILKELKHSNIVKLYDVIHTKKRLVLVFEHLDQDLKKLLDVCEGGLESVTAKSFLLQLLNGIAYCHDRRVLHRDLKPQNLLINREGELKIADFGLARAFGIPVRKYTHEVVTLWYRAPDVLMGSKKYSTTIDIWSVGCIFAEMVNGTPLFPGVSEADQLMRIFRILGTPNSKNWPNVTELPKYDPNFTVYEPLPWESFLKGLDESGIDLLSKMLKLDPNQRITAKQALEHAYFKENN
Chain of UniProt Q9HC98 (whole entry, looked up): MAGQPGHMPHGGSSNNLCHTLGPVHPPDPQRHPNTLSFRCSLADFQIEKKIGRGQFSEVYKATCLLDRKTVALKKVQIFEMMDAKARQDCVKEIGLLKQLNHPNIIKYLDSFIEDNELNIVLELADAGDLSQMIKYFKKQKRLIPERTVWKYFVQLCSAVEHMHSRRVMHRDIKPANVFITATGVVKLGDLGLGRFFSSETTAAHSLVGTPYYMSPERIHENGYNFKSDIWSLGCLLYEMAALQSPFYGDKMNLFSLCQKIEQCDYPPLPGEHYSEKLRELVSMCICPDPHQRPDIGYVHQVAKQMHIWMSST
Chain of UniProt Q13153 (whole entry, looked up): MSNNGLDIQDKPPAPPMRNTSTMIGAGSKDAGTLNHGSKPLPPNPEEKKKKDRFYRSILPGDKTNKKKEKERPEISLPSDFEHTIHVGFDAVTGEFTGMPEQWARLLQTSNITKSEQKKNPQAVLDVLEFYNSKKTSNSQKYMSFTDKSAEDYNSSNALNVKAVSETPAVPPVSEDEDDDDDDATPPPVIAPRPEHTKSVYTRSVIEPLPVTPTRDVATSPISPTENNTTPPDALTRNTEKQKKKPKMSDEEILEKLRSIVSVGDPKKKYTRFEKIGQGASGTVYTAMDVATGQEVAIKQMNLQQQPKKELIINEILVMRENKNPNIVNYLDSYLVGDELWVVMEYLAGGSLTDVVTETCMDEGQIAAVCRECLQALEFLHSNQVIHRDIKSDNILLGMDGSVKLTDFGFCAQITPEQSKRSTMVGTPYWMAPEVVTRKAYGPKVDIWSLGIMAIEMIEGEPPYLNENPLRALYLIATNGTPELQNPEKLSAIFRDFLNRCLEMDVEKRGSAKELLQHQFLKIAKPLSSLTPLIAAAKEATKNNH

Cc1[nH]c(C)c(S(=O)(=O)Nc2ccc(Cl)c(Cl)c2)c1C(=O)N1CCC(F)(F)C1
Emax (DRD3; β-arrestin recruitment, agonist; 90 min): 92%

CC1OC(OCC2OC(OCCc3ccc(O)c(O)c3)C(O)C(OC3OC(C)C(O)C(O)C3O)C2OC(=O)/C=C/c2ccc(O)c(O)c2)C(O)C(O)C1O (centres unmarked)
remaining activity (CTSL; enzyme activity, inhibitor; 100 µM): 111%

COc1cc(-c2cncc3c2CN(C)Cc2cc(N4CCNCC4)ccc2-3)cc(OC)c1OC
remaining activity (Activated CDC42 kinase 1 (TNK2, Homo sapiens, UniProt Q07912); enzyme activity, inhibitor; 1 µM): 77%

CCCCC(=O)Nc1ccc(-c2ccc3ncn(CCC)c(=O)c3c2)cn1
remaining binding (Tyrosine-protein kinase Mer (MERTK, Homo sapiens, UniProt Q12866); binding, competition with immobilised ligand; 0.5 µM): 100%

COc1cc(O)ccc1/C=C/C(=O)c1ccc(O)cc1
remaining activity (CTSL; enzyme activity, inhibitor; 100 µM): 36.7%

C=CC(=O)N1CCC(COCC(=O)N2CCN(c3nc(-c4cnc(N)nc4C(F)F)nc(N4CCOC[C@@H]4C)n3)CC2)CC1
remaining binding (Serine/threonine-protein kinase Nek6 (NEK6, Homo sapiens, UniProt Q9HC98); binding, competition with immobilised ligand; 1 µM): 100%

CC[C@H](C)[C@H](NC(=O)[C@H](CCC(N)=O)NC(=O)[C@H](CCCNC(=N)N)NC(=O)[C@H](CO)NC(=O)[C@H](Cc1c[nH]cn1)NC(=O)[C@@H]1CCCN1C(=O)[C@H](C)NC(=O)[C@H](CO)NC(=O)[C@H](CC(C)C)NC(=O)CNC(=O)[C@@H]1CCCN1C(=O)[C@H](CCC(N)=O)NC(=O)[C@H](CCC(N)=O)NC(=O)[C@H](CCCNC(=N)N)NC(=O)[C@H](CO)NC(=O)CNC(=O)[C@H](CO)NC(=O)[C@H](CO)NC(=O)[C@H](CCC(=O)O)NC(=O)[C@@H]1CCCN1C(=O)[C@@H]1CCCN1C(=O)[C@@H]1CCCN1C(=O)[C@H](CO)NC(=O)[C@H](CC(C)C)NC(=O)[C@H](CO)NC(=O)[C@@H](NC(=O)CN)[C@@H](C)O)C(=O)N1CCC[C@H]1C(=O)N[C@@H](C)C(=O)N1CCC[C@H]1C(=O)N[C@@H](CCC(N)=O)C(=O)NCC(=O)N[C@@H](C)C(=O)N[C@H](C(=O)N[C@@H](CC(C)C)C(=O)N[C@H](C(=O)N[C@@H](CCC(N)=O)C(=O)N[C@@H](CCCNC(=N)N)C(=O)N[C@@H](CCC(=O)O)C(=O)N[C@@H](CCCCN)C(=O)N[C@@H](CC(=O)O)C(=O)N[C@@H](CC(C)C)C(=O)N1CCC[C@H]1C(=O)N[C@@H](CC(N)=O)C(=O)N[C@@H](Cc1ccc(O)cc1)C(=O)N[C@@H](CC(N)=O)C(=O)N[C@@H](Cc1c[nH]c2ccccc12)C(=O)N[C@@H](CC(N)=O)C(=O)N[C@@H](CO)C(=O)N[C@@H](Cc1ccccc1)C(=O)NCC(=O)N[C@@H](CC(C)C)C(=O)N[C@@H](CCCNC(=N)N)C(=O)N[C@@H](Cc1ccccc1)C(N)=O)C(C)C)C(C)C
Emax (KiSS-1 receptor (KISS1R, Homo sapiens, UniProt Q969F8, R297A); inositol phosphate, agonist; HEK293): 98.2%

C1=C/COCc2cc(ccc2OCCN2CCCC2)Nc2nccc(n2)-c2cccc(c2)COC/1
remaining binding (Epidermal growth factor receptor (EGFR, Homo sapiens, UniProt P00533, del747-750/T751S); binding; 0.1 µM): 88%

COc1ccc(O)cc1
remaining activity (CTSL; enzyme activity, inhibitor; 100 µM): 104%

Cc1[nH]c(C)c(S(=O)(=O)Nc2ccc(Cl)cc2C(F)(F)F)c1C(=O)N1CCC(F)(F)C1
Emax (DRD3; β-arrestin recruitment, agonist; 90 min): 94%

COc1ccc2oc(-c3ccc4nc(N)oc4c3)c/c(=N\c3ccccc3NC(=O)CCN)c2c1
remaining binding (Cyclin-dependent kinase 1, with cyclin B (CDK1, Homo sapiens, UniProt P06493); binding; 1 µM): 100%

Nc1ncnc2occ(-c3ccc(NC(=O)Nc4cc(C(F)(F)F)ccc4F)cc3)c12
remaining signal (Tyrosine-protein kinase ABL1, phosphorylated (ABL1, Homo sapiens, UniProt P00519, F317I); cell-free assay, inhibitor; 20 µM): 2.6%

Cc1coc2c1C(=O)C(=O)c1c-2ccc2c1CCCC2(C)C
remaining activity (CTSL; enzyme activity, inhibitor; 100 µM): 63.8%

CNc1ncc2c(/C=C/C(=O)N3CCC(OC)CC3)nn(Cc3cccc(C(F)(F)F)c3)c2n1
remaining activity (Serine/threonine-protein kinase 17A (STK17A, Homo sapiens, UniProt Q9UEE5); enzyme activity, inhibitor, radiometric; 1 µM): 103%

CN1CC(Oc2cnc(C#N)cc2-c2ccn3nc(NC(=O)C4CC4)cc3c2)C1
inhibition (DNA-dependent protein kinase catalytic subunit (PRKDC, Homo sapiens, UniProt P78527); enzyme activity, inhibitor; 1 µM): 2%

CN(C)c1ncc(F)c(-c2cnn3ncccc23)n1
remaining signal (Cyclin-dependent kinase 2 homolog (CRK2, Plasmodium falciparum, UniProt P61075); cell-free assay; 1 µM): 74%

Cc1cc([C@@H](C)Nc2ccccc2C(=O)O)c2nc(N3CCC(F)(F)CC3)c(C#N)c(=O)n2c1
remaining binding (Serine/threonine-protein kinase PAK 1 (PAK1, Homo sapiens, UniProt Q13153); binding, competition with immobilised ligand; 1 µM): 100%

For quick reference, copied from above:
Cc1[nH]c(C)c(S(=O)(=O)Nc2ccc(Cl)c(Cl)c2)c1C(=O)N1CCC(F)(F)C1
Emax (DRD3; β-arrestin recruitment, agonist; 90 min): 92%

CC1OC(OCC2OC(OCCc3ccc(O)c(O)c3)C(O)C(OC3OC(C)C(O)C(O)C3O)C2OC(=O)/C=C/c2ccc(O)c(O)c2)C(O)C(O)C1O (centres unmarked)
remaining activity (CTSL; enzyme activity, inhibitor; 100 µM): 111%
